{"data": "Assay results collected from several papers", "Ryanodine receptor 1": "Ryanodine receptor 1 (Oncorhynchus mykiss, UniProt A0A8C7UX14)", "CNR1": "Cannabinoid receptor 1 (CNR1, Homo sapiens, UniProt P21554)", "note": "Lines come from different studies, so protocols differ. Numbers after ± are the reported error.", "sequence of UniProt P21554 (whole entry, looked up)": "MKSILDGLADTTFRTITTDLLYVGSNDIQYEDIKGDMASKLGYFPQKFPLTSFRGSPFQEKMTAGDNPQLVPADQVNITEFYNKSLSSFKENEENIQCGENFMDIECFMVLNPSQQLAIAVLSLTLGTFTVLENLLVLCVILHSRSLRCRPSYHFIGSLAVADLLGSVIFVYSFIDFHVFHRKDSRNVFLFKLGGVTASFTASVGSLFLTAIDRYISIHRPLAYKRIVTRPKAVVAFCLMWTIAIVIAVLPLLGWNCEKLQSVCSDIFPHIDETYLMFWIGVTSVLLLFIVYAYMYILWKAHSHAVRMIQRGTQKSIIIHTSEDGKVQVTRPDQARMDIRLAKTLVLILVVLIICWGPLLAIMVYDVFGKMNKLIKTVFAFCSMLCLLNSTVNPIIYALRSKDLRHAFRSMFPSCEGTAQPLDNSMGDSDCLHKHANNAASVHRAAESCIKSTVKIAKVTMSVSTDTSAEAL", "sequence of UniProt P18508 (whole entry, unmodified, looked up)": "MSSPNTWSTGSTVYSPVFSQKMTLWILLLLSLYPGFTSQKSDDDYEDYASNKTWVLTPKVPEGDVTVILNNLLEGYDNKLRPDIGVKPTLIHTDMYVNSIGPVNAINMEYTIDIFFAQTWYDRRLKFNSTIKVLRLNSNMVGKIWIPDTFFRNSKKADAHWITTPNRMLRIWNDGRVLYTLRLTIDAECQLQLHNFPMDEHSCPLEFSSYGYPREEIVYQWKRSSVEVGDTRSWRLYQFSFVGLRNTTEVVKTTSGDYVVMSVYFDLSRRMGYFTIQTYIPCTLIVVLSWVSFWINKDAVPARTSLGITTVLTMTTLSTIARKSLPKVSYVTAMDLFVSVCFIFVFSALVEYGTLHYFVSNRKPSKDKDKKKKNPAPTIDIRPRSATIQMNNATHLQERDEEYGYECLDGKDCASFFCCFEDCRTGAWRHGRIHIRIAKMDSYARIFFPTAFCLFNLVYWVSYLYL", "sequence of UniProt P62813 (whole entry, unmodified, looked up)": "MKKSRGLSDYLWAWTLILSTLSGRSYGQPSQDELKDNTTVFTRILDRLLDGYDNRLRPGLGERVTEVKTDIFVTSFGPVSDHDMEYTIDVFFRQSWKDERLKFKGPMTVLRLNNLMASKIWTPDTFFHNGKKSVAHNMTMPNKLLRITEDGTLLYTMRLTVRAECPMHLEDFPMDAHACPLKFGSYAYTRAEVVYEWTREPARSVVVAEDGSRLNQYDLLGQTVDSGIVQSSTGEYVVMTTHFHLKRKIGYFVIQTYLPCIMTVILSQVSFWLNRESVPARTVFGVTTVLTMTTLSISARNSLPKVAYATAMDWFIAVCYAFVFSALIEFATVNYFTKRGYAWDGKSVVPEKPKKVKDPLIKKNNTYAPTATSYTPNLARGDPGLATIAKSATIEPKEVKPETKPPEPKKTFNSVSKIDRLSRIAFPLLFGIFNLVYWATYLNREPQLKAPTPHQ", "sequence of UniProt O43613 (whole entry, looked up)": "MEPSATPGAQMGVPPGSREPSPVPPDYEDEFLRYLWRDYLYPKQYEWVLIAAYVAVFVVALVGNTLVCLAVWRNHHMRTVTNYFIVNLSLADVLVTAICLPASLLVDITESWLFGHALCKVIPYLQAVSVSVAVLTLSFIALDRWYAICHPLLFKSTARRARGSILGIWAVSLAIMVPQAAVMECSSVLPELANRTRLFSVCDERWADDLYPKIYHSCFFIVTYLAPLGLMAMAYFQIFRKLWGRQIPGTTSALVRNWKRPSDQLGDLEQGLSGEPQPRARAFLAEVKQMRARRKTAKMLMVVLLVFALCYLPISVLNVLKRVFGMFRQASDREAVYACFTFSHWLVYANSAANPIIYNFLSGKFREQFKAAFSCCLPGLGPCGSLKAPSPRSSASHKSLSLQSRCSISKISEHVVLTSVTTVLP", "sequence of UniProt Q8NKB0 (whole entry, unmodified, looked up)": "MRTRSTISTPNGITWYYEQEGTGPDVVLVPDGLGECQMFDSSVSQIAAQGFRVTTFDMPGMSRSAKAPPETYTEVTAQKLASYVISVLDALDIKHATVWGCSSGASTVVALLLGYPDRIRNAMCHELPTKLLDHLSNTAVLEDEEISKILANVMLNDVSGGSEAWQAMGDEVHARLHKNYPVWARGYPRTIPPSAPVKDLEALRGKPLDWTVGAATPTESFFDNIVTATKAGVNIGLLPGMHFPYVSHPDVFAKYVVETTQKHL", "sequence of UniProt P18825 (whole entry, looked up)": "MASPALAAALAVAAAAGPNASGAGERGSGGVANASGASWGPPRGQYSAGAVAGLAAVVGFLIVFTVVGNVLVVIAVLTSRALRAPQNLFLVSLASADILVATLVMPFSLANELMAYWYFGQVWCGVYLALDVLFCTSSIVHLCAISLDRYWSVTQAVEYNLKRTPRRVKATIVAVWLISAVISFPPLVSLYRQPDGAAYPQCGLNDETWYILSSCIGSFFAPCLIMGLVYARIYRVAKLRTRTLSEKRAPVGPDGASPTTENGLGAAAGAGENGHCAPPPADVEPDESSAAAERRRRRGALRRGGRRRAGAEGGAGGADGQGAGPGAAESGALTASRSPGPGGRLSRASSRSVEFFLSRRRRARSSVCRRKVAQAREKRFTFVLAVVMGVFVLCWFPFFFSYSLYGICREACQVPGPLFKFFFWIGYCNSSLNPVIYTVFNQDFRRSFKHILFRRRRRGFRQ", "sequence of UniProt Q12791 (whole entry, looked up)": "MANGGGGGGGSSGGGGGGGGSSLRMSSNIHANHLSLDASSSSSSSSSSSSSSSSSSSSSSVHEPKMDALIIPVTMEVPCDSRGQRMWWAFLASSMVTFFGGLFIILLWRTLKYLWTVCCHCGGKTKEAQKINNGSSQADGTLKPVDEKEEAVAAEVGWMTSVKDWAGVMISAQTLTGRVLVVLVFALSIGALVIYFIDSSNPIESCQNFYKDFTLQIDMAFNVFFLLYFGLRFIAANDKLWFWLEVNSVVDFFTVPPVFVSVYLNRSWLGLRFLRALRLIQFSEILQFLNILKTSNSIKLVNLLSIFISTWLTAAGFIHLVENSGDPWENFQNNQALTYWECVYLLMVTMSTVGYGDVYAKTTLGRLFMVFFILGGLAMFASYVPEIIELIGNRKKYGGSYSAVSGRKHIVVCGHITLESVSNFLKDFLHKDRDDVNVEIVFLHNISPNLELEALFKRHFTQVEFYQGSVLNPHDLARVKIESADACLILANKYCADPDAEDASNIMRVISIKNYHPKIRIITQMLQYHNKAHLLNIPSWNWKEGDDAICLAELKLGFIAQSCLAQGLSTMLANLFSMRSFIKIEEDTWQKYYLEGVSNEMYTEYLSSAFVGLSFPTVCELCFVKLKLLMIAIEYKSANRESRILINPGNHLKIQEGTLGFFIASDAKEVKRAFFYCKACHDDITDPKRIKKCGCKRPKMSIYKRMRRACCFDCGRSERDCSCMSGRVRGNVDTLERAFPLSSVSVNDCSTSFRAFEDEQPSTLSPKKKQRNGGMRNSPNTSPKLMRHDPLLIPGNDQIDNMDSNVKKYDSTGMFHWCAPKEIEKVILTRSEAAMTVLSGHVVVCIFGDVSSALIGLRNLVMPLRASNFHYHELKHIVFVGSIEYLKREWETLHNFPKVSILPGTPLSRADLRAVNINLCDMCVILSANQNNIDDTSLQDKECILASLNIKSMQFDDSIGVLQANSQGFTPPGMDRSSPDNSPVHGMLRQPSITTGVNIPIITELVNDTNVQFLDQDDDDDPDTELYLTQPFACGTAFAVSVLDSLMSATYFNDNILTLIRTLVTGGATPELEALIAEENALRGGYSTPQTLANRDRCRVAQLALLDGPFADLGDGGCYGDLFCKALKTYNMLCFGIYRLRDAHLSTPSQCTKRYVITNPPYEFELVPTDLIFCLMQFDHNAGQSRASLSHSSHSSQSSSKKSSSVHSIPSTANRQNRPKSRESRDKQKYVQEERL", "sequence of UniProt P34913 (whole entry, looked up)": "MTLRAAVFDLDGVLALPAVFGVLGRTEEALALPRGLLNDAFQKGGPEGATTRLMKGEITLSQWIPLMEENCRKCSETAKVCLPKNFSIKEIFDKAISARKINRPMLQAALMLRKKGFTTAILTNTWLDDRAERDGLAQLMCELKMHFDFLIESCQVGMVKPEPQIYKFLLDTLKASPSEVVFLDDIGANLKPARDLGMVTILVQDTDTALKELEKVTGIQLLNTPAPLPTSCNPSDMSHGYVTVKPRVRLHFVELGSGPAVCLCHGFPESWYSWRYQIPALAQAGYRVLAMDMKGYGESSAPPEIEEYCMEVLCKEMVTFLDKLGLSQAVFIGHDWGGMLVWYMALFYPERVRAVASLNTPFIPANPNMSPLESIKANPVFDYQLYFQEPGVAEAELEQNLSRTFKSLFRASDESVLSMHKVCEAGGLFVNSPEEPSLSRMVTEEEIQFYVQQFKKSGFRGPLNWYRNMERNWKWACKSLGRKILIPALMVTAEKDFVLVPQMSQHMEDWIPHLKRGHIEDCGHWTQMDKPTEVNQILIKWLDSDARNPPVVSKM", "sequence of UniProt P61075 (whole entry, looked up)": "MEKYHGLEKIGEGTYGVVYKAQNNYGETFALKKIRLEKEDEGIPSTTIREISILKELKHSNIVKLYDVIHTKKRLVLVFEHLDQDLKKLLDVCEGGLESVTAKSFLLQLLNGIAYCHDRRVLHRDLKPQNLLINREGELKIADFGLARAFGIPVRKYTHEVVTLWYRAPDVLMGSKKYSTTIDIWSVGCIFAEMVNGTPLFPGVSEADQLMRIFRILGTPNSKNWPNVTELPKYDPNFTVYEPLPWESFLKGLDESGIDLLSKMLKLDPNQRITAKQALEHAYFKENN", "sequence of UniProt P54292 (whole entry, looked up)": "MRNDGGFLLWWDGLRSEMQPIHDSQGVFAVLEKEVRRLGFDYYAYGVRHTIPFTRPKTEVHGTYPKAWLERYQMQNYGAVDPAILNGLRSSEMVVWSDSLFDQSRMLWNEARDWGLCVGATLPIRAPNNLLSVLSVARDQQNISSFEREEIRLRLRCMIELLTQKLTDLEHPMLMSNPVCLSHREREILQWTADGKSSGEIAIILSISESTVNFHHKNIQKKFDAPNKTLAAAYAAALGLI"}
{"Molecule": "Nc1ncnc2c1ncn2[C@H]1C[C@H](O)[C@@H](COP(=O)(O)OP(=O)(O)OP(=O)(O)O)O1", "tested on": "DNA polymerase IV, with DNA (dbh, Saccharolobus solfataricus, UniProt Q97W02)", "assay": "nucleotide incorporation opposite dC, single-turnover extension of lesion bypass product", "setting": "lesion bypass extension, with: 21/26-mer dG-C8-N-ABA primer-template", "measurement": "misincorporation frequency", "result": "3.8%"}
{"Molecule": "CCOc1ccccc1S(=O)(=O)N1CCC(c2nc(-c3ccc(F)cc3)no2)CC1", "tested on": "Calcium-activated potassium channel subunit alpha-1, with beta-3 subunit (KCNMA1, Homo sapiens, UniProt Q12791)", "test system": "HEK293", "setting": "30 µM", "measurement": "activity", "result": "inactive"}
{"Molecule": "CN(C(=O)n1cnc(-c2ccc[n+]([O-])c2)c1)C1CCCCC1", "tested on": "Fatty-acid amide hydrolase 1 (Faah, Mus musculus, UniProt O08914)", "assay": "enzyme activity, ex vivo", "test system": "mouse, liver", "setting": "oral, 0.1 mg/kg, 48 h", "how to read": "reference: vehicle", "measurement": "remaining activity", "result": "72.5%"}
{"Molecule": "anthraquinone-neomycin", "tested on": "poly(dA)•2poly(dT) triplex DNA", "assay": "isothermal titration calorimetry", "setting": "concentration not given, pH 5.5, 15 °C, KCl 150 mM", "measurement": "binding enthalpy", "result": "-6.1 ± 0.2 kcal/mol"}
{"Molecule": "C[C@H]1CCCC(=O)CCC/C=C/c2cc(O)cc(O)c2C(=O)O1", "tested on": "zhd101 (Clonostachys rosea, UniProt Q8NKB0, D133K/D157K/E171K)", "assay": "substrate, HPLC", "setting": "10 min, pH 5.5, 37 °C, 1% acetonitrile", "measurement": "Km", "result": "33.8 ± 0.69 mM"}
{"Molecule": "O=C1Nc2ccccc2/C1=C1/Nc2ccccc2/C1=N\\O", "tested on": "Cyclin-dependent kinase 2 homolog (CRK2, Plasmodium falciparum, UniProt P61075)", "assay": "KINOMEscan competition binding", "setting": "12 µM", "how to read": "reference: DMSO control", "measurement": "remaining binding", "result": "50 to 95%"}
{"Molecule": "Nc1nc2c(ncn2[C@@H]2O[C@@H]3COP(=O)(O)O[C@H]4[C@@H](O)[C@H](n5cnc6c(=O)[nH]c(N)nc65)O[C@@H]4COP(=O)(O)O[C@H]3[C@H]2O)c(=O)[nH]1", "tested on": "gdpP, residues 84-659 (Bacillus subtilis, UniProt P37484)", "assay": "substrate, HPLC", "setting": "100 µM, 37 °C, upper limit if undegraded 24 h, with: enzyme 1 µM", "measurement": "degradation rate", "result": "0.8 ± 0.1 mol/min/mol enzyme"}
{"Molecule": "Clc1ccc(Cl)c(-c2c(Cl)ccc(Cl)c2Cl)c1Cl", "tested on": "Ryanodine receptor 1", "assay": "[3H]ryanodine binding", "test system": "rainbow trout, skeletal muscle microsomes", "measurement": "EC20", "result": "720 nM"}
{"Molecule": "CN1CC[C@@]2(C)c3cc(OC(=O)Nc4ccccc4)ccc3N(C)[C@@H]12", "tested on": "Cholinesterase (BCHE, Homo sapiens, UniProt P06276)", "assay": "inhibitor, immobilized enzyme reactor, HPLC-UV", "test system": "immobilized recombinant human enzyme", "setting": "concentration not given, flushing after complete inhibition", "measurement": "time to full activity recovery", "result": "< 2 h"}
{"Molecule": "CCCCSS(C)(=O)=O", "tested on": "Gabrg2/GABRB2/Gabra1 (Rattus norvegicus, UniProt P18508+P47870+P62813, C260A/C282A/C319A/C341A)", "assay": "covalent modifier, two-electrode voltage clamp", "test system": "Xenopus laevis oocytes", "setting": "0.5 mM, labelled without GABA, with: GABA EC10", "how to read": "reference: before labelling", "measurement": "GABA current", "result": "no effect"}
{"Molecule": "C[C@@H]1C[C@@H]([C@H](O)CC2CC(=O)NC(=O)C2)C(=O)[C@@H](C)C1", "tested on": "Bifunctional epoxide hydrolase 2 (EPHX2, Homo sapiens, UniProt P34913)", "assay": "immunoblot", "test system": "HepG2", "setting": "with: protein synthesis inhibitor", "measurement": "half-life", "result": "48 h"}
{"Molecule": "CC1N=C(c2ccccc2F)c2cc(Nc3ccccc3F)ccc2NC1=O (stereo not shown)", "tested on": "Alpha-2C adrenergic receptor (ADRA2C, Homo sapiens, UniProt P18825)", "assay": "ligand displacement, radioligand", "setting": "10 µM", "measurement": "inhibition", "result": "58%"}
{"Molecule": "acetyl pepstatin", "tested on": "Gag-Pol polyprotein, protease (Human immunodeficiency virus type 1 group M subtype B, UniProt P03367)", "assay": "DSC", "setting": "28 µM, pH 4.8", "measurement": "melting temperature", "result": "72.2 °C"}
{"Molecule": "Clc1ccc(Cl)c(-c2c(Cl)c(Cl)cc(Cl)c2Cl)c1", "tested on": "Ryanodine receptor 1", "assay": "[3H]ryanodine binding", "test system": "rainbow trout, skeletal muscle microsomes", "measurement": "EC20", "result": "2210 nM"}
{"Molecule": "CC[C@H](C)[C@H](NC(=O)[C@H](C)NC(=O)[C@H](CO)NC(=O)[C@@H](NC(=O)[C@H](CCC(=O)O)NC(=O)[C@H](CCC(=O)O)NC(=O)[C@H](CCC(N)=O)NC(=O)[C@H](CCCCN)NC(=O)[C@H](CCCNC(=N)N)NC(=O)[C@@H](N)CCCCN)C(C)C)C(=O)N[C@H](C(=O)N[C@H](C(=O)N[C@@H](CCC(N)=O)C(=O)N[C@@H](CCCNC(=N)N)C(=O)N[C@@H](C)C(=O)N[C@@H](Cc1ccc(O)cc1)C(=O)N[C@@H](CCCNC(=N)N)C(=O)N[C@@H](CCCNC(=N)N)C(=O)N[C@@H](Cc1ccc(O)cc1)C(=O)N[C@@H](CC(C)C)C(=O)N[C@@H](CC(C)C)C(=O)N[C@@H](CCCCN)C(=O)N[C@@H](CCC(N)=O)C(=O)N[C@@H](CCCCN)C(=O)N[C@H](C(=O)N[C@@H](CCCCN)C(=O)N[C@@H](CCCCN)C(=O)O)C(C)C)[C@@H](C)CC)C(C)C", "tested on": "Calmodulin, C-terminal domain (CAM, Paramecium tetraurelia, UniProt P07463)", "setting": "3 to 1 µM, pH 7.4, 22 °C, apo CaM residues 76-148", "how to read": "reference: peptide alone", "measurement": "fluorescence emission increase", "result": "15%"}
{"Molecule": "O=[N+]([O-])c1ccc(O[C@H]2O[C@H](CO)[C@H](O)[C@H](O)[C@H]2O)cc1", "tested on": "lacY (Escherichia coli, UniProt P02920, H35C/N245C)", "assay": "cytoplasmic cavity opening", "test system": "DDM", "setting": "Cu2+ cross-linked", "measurement": "forward rate constant", "result": "45 ± 4 s⁻¹"}
{"Molecule": "CC(C)(NC(=O)c1nn(CCCCCF)c2ccccc12)c1cccc(C(N)=O)c1", "tested on": "CNR1", "assay": "calcium mobilization, agonist", "test system": "CHO-K1 expressing Gαq16", "how to read": "reference: CP55,940 maximum", "measurement": "Emax", "result": "33 ± 7%"}
{"Molecule": "COC(=O)Nc1cc(CC2c3cc(NC(=O)OC)c(OC)cc3CCN2CC(=O)NCc2ccccc2)ccc1OC (stereo not shown)", "tested on": "Orexin/Hypocretin receptor type 1 (HCRTR1, Homo sapiens, UniProt O43613)", "test system": "human cells", "setting": "concentration not given", "measurement": "activity", "result": "inactive"}
{"Molecule": "Clc1ccc(Cl)c(-c2cccc(Cl)c2Cl)c1", "tested on": "Ryanodine receptor 1", "assay": "[3H]ryanodine binding", "test system": "rainbow trout, skeletal muscle microsomes", "setting": "up to 20 µM", "how to read": "reference: DMSO", "measurement": "Emax", "result": "170 ± 3.5%"}
{"Molecule": "CC(=O)[C@H]1CCC2C3CC[C@H]4C[C@H](O)CC[C@]4(C)C3CC[C@@]21C (stereo partly shown)", "tested on": "Nuclear receptor ROR-alpha (RORA, Homo sapiens, UniProt P35398)", "assay": "AlphaScreen", "how to read": "reference: 25 µM 7α-hydroxycholesterol", "measurement": "maximal response", "result": "149%"}
{"Molecule": "N=C(N)NCC(=O)NCC1(Nc2ccccc2)CCN(Cc2ccccc2)CC1", "tested on": "Neuropeptide FF receptor 1 (NPFFR1, Homo sapiens, UniProt Q9GZQ6)", "assay": "receptor activation, agonist", "measurement": "highest concentration inactive", "result": "≤ 1 µM"}
{"Molecule": "CC(C)[C@@H](CN1CCN(c2cccc(O)c2)[C@@H](C)C1)NC(=O)c1ccc(Oc2ccccc2O)cc1", "tested on": "Delta-type opioid receptor (OPRD1, Homo sapiens, UniProt P41143)", "assay": "antagonist", "test system": "CHO", "setting": "with: DPDPE", "measurement": "Ke", "result": "960 ± 220 nM"}
{"Molecule": "O=C(O)c1ccc(-c2cccc(/C=N/NC(=O)c3cc(O)c(O)c(O)c3)c2)cc1", "tested on": "Gag-Pol polyprotein, reverse transcriptase A502G/D256G (gag-pol, Human immunodeficiency virus type 1 group M subtype B, UniProt P04585, A1089G/D843G)", "assay": "RNase H activity, inhibitor", "test system": "HIV-1, A502G and p51 D256G mutant", "how to read": "reference: wild type RT", "measurement": "potency loss", "result": "20 fold"}
{"Molecule": "O=C1Nc2ccc3ncsc3c2/C1=C/Nc1ccc(S(=O)(=O)Nc2ccccn2)cc1", "tested on": "Putative glycogen synthase kinase (Leishmania major, UniProt Q4QE15, Y102F)", "assay": "kinase inhibition, inhibitor", "setting": "Y102F mutant, short isoform", "how to read": "reference: wild type over Y102F mutant", "measurement": "sensitivity ratio", "result": "> 10 fold"}
{"Molecule": "C=C1[C@@H](C)[C@H]2[C@H](Cc3ccccc3)NC(=O)[C@]23[C@H](OC(C)=O)/C=C/[C@@](C)(O)C(=O)[C@@H](C)C/C=C/[C@H]3[C@@H]1O", "tested on": "integrin alphaM beta2 (human)", "assay": "ligand binding, inhibitor, flow cytometry", "test system": "human neutrophils", "setting": "concentration not given, 1 h, 37 °C, integrin clustering inhibitor, with: Alexa 488-labelled plasminogen", "how to read": "reference: no inhibitor, lower means less binding", "measurement": "bound plasminogen fluorescence", "result": "291 ± 40 MFI"}
{"Molecule": "nitric oxide", "tested on": "H-NOX ferrous, Nostoc sp.", "assay": "stopped-flow", "setting": "24 °C", "measurement": "rate constant", "result": "~2e+06 M⁻¹ s⁻¹"}
{"Molecule": "O=C(O)CCCC[C@@H]1SC[C@@H]2NC(=O)N[C@@H]21", "tested on": "Biotin protein ligase (Pyrococcus horikoshii, UniProt O57883)", "assay": "binding, fluorescence titration", "setting": "20 °C, with: α,β-methylene-ATP saturating", "measurement": "ΔG°", "result": "-8.74 ± 0.07 kcal/mol"}
{"Molecule": "CN[C@@](C)(C[18F])C(=O)O", "tested on": "MDA-MB-468 tumour model", "test system": "host not given, kidney", "setting": "15 min, tumour-bearing", "measurement": "tracer uptake", "result": "24 %ID/g"}
{"Molecule": "C[C@H]1CNCCc2ccc(Cl)cc21", "test system": "male Sprague-Dawley rat, plasma", "setting": "subcutaneous, 1 mg/kg, single dose", "measurement": "Cmax", "result": "34.4 ng/mL"}
{"Molecule": "CC(C)C[C@H](N)C(=O)O", "tested on": "SPS-sensor component SSY1 (SSY1, Saccharomyces cerevisiae, UniProt Q03770)", "setting": "cytoplasmic volume 2 ml/g DW", "measurement": "slope of EC50 vs cytoplasmic level", "result": 0.003}
{"Molecule": "O=S(=O)(O)c1nc2ccccc2[nH]1", "tested on": "racE (Bacillus subtilis, UniProt P94556, N75L)", "assay": "enzyme activity, inhibitor", "measurement": "binding free energy", "result": "-5.71 kcal/mol"}
{"Molecule": "CC(C)(NC(=O)c1nn(CCCCC#N)c2ccccc12)c1cccc(C(N)=O)c1", "tested on": "CNR1", "assay": "calcium mobilization, agonist", "test system": "CHO-K1 expressing Gαq16", "how to read": "reference: CP55,940 maximum", "measurement": "Emax", "result": "24 ± 9%"}
{"Molecule": "O=C(Cc1ccc(F)cc1)NC1CCOC1=O (stereo not shown)", "tested on": "HTH-type quorum-sensing regulator RhlR (rhlR, Pseudomonas aeruginosa, UniProt P54292)", "assay": "reporter gene, agonist", "test system": "Escherichia coli reporter strain", "setting": "100 µM", "how to read": "reference: BHL 900 µM", "measurement": "activation", "result": "71%"}
{"Molecule": "[123I]c1cncc(OC[C@@H]2CCN2)c1", "assay": "SPECT", "test system": "human, thalamus", "setting": "intravenous bolus, 2.1 mCi", "how to read": "reference: plasma", "measurement": "tissue/plasma ratio", "result": 23.4}
